Assay results from different studies.
Parts stem from different laboratories: compare values within a part only. Substitutions count along the parent as printed.

Study 1 — technique: aptamer microarray, sandwich; molecule type: DNA with 2'F-ANA; sample: in vitro; concentration: 200 nM; added: Cy3 exosite-II aptamer, 400 nM; reading: higher = stronger binding; strand: GGTTGGTGTGGTTGG
Target: Prothrombin, mature alpha-thrombin (F2, Homo sapiens, UniProt P00734)
Setting: whole 15-mer aptamer, many near background
`2'F-ANA at 1 6 8 9 10 11 13`: “mean fluorescence intensity” 52.4 a.u.
`2'F-ANA at 1 2 3 6 8 9 10 11 12 13 14 15`: “mean fluorescence intensity” 60.2 a.u.
Under “mean fluorescence intensity”, `2'F-ANA at 2 3 5 6 7 8 9 15` is recorded as 101 a.u.
`2'F-ANA at 2 3 4 7 8 10 12 13 14` — result for “mean fluorescence intensity”: 182 a.u.
For `2'F-ANA at 1 3 4`, “mean fluorescence intensity” read 221 a.u.
`2'F-ANA at 1 4 5 7 8 11 12 13` — result for “mean fluorescence intensity”: 74.1 a.u.
Under “mean fluorescence intensity”, `2'F-ANA at 5 6 8 9 11 12 14 15` is recorded as 49.6 a.u.
Under “mean fluorescence intensity”, `2'F-ANA at 2 3 5 7 8 12 15` is recorded as 272 a.u.

Study 2 — technique: RNA Bind-n-Seq; molecule type: RNA; sample: in vitro; concentration: not given; baseline: input RNA pool; reading: higher = stronger binding
Target: RING finger protein unkempt homolog, zinc fingers 1-6, GST-SBP tag (UNK, Homo sapiens, UniProt Q9C0B0, residues 30-357)
Sequence of UniProt Q9C0B0 (30-357, looked up): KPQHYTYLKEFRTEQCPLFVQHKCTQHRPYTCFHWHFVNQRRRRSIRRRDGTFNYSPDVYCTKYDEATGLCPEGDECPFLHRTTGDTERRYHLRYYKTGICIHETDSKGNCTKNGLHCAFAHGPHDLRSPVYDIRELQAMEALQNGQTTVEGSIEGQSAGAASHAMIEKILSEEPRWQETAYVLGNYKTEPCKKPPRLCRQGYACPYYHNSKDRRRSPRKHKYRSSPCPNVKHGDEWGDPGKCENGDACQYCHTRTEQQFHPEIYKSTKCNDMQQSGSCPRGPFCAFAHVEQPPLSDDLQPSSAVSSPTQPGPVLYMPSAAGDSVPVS
Setting: RNA with constant flanks, human and mouse sites, ends assumed
Shared flanks, not repeated: GGGAGUUCUACAGUCCGACGAUC … CAACAGAGGAUUGAGCAUCA
`CGUGCACUGGGUUAAAAACGACAACGAGCACCAACCAUGAAAGAUCCAAGUCGCAGCAGUACUAGCCCAAGCAUCAUCAAUGACGAUGUGAUUAUUAACGGUCAUUCUCAUGAAGAGGAU` has a bound/input enrichment of 0.126 ratio.
The bound/input enrichment of `AUGCACCUGAAGAAACCUGGGGGCUUUGACAUAUCCUUGUUCUACAGAGAUAUCAUCAGCAUAGCAGAGGAUGAGGACCUCAGGGUUCACUUUGAGGAAUCCAGCAAGCUAGAAGACCUG` is reported as 0.181 ratio.
The bound/input enrichment of `GGCCCUUGACCGUGUGGCCUCUGCCUGGCUGUUUGGGGUCCUGCACGGCUUUCCCACCACCUGUAGCUCUUGUUGACCUGCCUGUUCACCUCAUGAGUGAAGCGUCUGCCUGGCAGUGGG` is reported as 0.358 ratio.
The bound/input enrichment of `CCAUCCCUCAGUGACAGCAUGCCGUCUGUAGCAGAUUCCCACUCCAGUCAUUUUUCUGAAUUUAGCUGCUCAGACUUAGAAAGCAUGAGAACGUCCUGUAGUCACGGCUCCAGUGAUUGC` is reported as 0.461 ratio.
`AUUUUGCUGUGUGGUGUGGCUGCCUUUGGUAGGGAGGUUUCCAUGGAUGUAGCCAGCGUGUAGCUAUUGUGUGUGGGGCAGCAUCCAGCCUGGAGUUGCCAGUGUCUCUAGCAAGCAAUA` has a bound/input enrichment of 0.324 ratio.
With `CAGGCUUACGCUCCAGAAGAGGCAGCCCAAGAGGAGGAAUCAGUUCUCUGGACGAUAUUGAUUAGCAUUUUGAAACUGGUGCUUGAAAUUCUCUUCUGAUCCCUUGAAUAUGCUGGAGCA` the bound/input enrichment was 10.6 ratio.
For `AAAGCAAAAUUAGGGGAAAACUCAGCAACCAAUGUAUGCAGUCCAUCUUUGGGAAACAUCUCUAAUGUCGAUACAAAUGGGGAACAUUUAGAAAGUUAUGAGGCUGAGAUCUCCACUAGA`, the bound/input enrichment was 0.929 ratio.
For `AAAAUAGACUAUGGUGAAUACAUGGAUAAAAAUAAUGUGAGGCGACAAGCAACAACAAUCAUAGCUGAUAAUAUUAUAUUUCUGAGUGACCAGACGAAAGAGAAGGAGUAGAAAGGAUGA`, the bound/input enrichment was 4.51 ratio.

Study 3 — technique: EMSA with sequencing; molecule type: double-stranded DNA, one strand shown; sample: in vitro; concentration: 10 and 20 nM; baseline: negative control set to 0; reading: higher = stronger binding
Target: Hepatocyte nuclear factor 3-alpha (Foxa1, Mus musculus, UniProt P35582, residues 1-468, full length assumed)
Sequence of UniProt P35582 (whole entry, looked up): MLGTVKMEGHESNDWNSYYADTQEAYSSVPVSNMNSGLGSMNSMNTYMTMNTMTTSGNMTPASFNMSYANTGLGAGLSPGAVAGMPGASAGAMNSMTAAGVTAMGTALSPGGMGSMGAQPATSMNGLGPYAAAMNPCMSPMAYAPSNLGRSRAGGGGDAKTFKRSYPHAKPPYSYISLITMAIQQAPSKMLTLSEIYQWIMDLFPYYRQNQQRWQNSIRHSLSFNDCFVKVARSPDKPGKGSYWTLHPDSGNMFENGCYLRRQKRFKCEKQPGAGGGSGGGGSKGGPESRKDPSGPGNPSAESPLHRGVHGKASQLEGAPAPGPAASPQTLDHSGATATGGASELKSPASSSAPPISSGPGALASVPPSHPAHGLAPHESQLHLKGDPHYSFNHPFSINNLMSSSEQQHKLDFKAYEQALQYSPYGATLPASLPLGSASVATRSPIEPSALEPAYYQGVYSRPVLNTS
Setting: whole designed probe, mean of two concentrations, ends assumed
Shared flanks, not repeated: GTGAGCGGTGCCCATTGATGGGGAAC … TTTCACTGGGATCGTGGGGAC
`AGAATGACCTCTCAGATTCATTGCAATGCAAACCCCCTCTGAGCCCATGAAAAAGTGTCCAGTGAATGTGCTCTGCAAACATGCAGGCACTATATAAACAAGAGGCAAATATTTTAAAAGGTGAAGAATGAGATACTTGTACTGCTGTGAGAGCGGTGGTTGGAATGTTGTGCCCCAGCAACATACTTTCCGT` — result for “normalised bound fraction”: 0.353 ratio.
For `GCATGAGCCGCATTGCCCAGCAAAAGCCTCTAAGTGGTGATTTGCTGTTTGGCCTGAGAGTAATTTGGAGGCTGTGGCTGAGTCAGCTTCTCTTGTTGACTGAGCTGATGTCACTTTTGACCTTCATTGTTCCATAATTCCTTATGAAACTCTTCTGAAGCACTGAGAACCATCGACGGATCATATCAGCATG`, “normalised bound fraction” read 0.0172 ratio.
Under “normalised bound fraction”, `ATGTGCTAAAAATACAAGACTTGCTTACGCAGAGAGCCGGGAGCTATGTTCCAGTGAGGGTGGAAACAAAAGCCTCAGTATAAGACTGTCAGGAGATTACACAAGGGTGTGGTTTGCTCATGTGGCAACACGAGGTTGCTGGACTCCACATGCTGAGGCTCAAAGTAGAAATCACTGATCTTATGTCACATAT` is recorded as 0.0239 ratio.
`TGCTGGACCCCGGGCATAGGGAGCCCTTGCTGCTTCTCCACCCACCAGTGCTGAGCTCCGGGGGTGTTTGCCTTGCAGGTCCAAGGTGAGAATGTAAACACTGCAATTCCTCTGAAAACTGGCTGGAACCTCCTCCAGGGAGGAAGGGTTGCTCATGGGCTGGCCAGGCTCCCAAACATCATACACAGCAACC`: “normalised bound fraction” 0.333 ratio.
Under “normalised bound fraction”, `ATCTTCCCCCTCTTCCTTGCCCCACCAGCTCACCTTCCCGGGTTATTTGCAGATAGGAAAATAAATAAAGCCGGCATTCGTTAACCCTCTTCACGCGCATACTGCTGTTTGCTCTGGATGAATCATGGTCCTTTGGCGACGCCAGGCTCCGGGAGAGCAAAGCACCGTGTCAGGGCCATGATCCGGGGTGGCC` is recorded as 0.361 ratio.

Other studies, line by line — starting sequence: viral docking peptide; YKVKRRLVFGADD
Under “normalised enrichment score”, `YKVKRRLDFGADD [V8D]` is recorded as 8.95 (CCNF, cyclin fold, Cln2 fusion (human); yeast growth competition, sequencing; yeast; strong parent motif; baseline: not given, higher = stronger binding).
